Measurements gathered from unrelated publications.
Parts stem from different laboratories: compare values within a part only.

Set 1 — technique: protein-binding microarray; molecule type: double-stranded DNA, one strand shown; sample: in vitro; concentration: 940 nM top; setting: 60-bp whole probe; with: salmon DNA 0.4 mg/ml; reference: random background probes; reading: higher = stronger binding; measurement: fitted relative affinity; shared flanks, not repeated: GCCTAGCAC … GTCTTGATTCGCTTGACGCTGCTG
Target: Interferon regulatory factor 5, full length, phosphomimetic (IRF5, Homo sapiens, UniProt Q13568-2, residues 1-514, S451D/S453D/S456D/S462D)
TTAGGACTGGACACTGGGTTTGTGCTA: -0.226 z-score
GACGAACTGAGTATCGATACGTGCTAG: 5 z-score
GACGGTCTCGGTATAGGGACGTGCTAG: 4.25 z-score
GACGGCCTGCTTTTCCTGACGTGCTAG: -0.155 z-score
TCAATTTTCCCCTACTGACTGTGCTAG: 1.16 z-score
GACGGACTGGACACTGGGCACGTGCTA: -0.705 z-score
TCAAATCTCACTCTGTCACTGTGCTAG: 0.905 z-score
GACGCTTTCGGTATCGGGACGTGCTAG: 6.67 z-score
TTAGGACTGCTTCTCGTTTAGTGCTAG: 0.182 z-score
GTAGATTTCAGTTCCGATTAGTGCTAG: 1.91 z-score
TTAGGACTGGGTATCGTTTAGTGCTAG: 1.1 z-score
GATGGACTGCTACTGCTGACGTGCTAG: -0.486 z-score
GACGGTTTCCTTCTCCTAACGTGCTAG: 1.77 z-score
GACGATTTCGGGACTTGAGACGTGCTA: 0.104 z-score
GAACATATTTGTTTCCATTTGTGCTAG: 0.531 z-score
TTAGGTTTCGGTTTCGGTTGGTGCTAG: 17.3 z-score
AGGCAGGCATAAAGGAAAAAGTGCTAG: -0.552 z-score
GACGATTTCGGGTATAGAGACGTGCTA: 0.79 z-score
TTAGGTTTCCTTATCGTTTAGTGCTAG: 1.88 z-score

Set 2 — technique: RNA Bind-n-Seq; molecule type: RNA; sample: in vitro; concentration: not given; setting: 4-mer, random 30-nt RNA, single round; with: RocA, ADP, phosphate; reference: input library; reading: higher = stronger binding; measurement: 4-mer enrichment
Target: Eukaryotic initiation factor 4A-I (EIF4A1, Homo sapiens, UniProt P60842, residues 1-406, full length assumed)
Sequence of UniProt P60842 (whole entry, looked up): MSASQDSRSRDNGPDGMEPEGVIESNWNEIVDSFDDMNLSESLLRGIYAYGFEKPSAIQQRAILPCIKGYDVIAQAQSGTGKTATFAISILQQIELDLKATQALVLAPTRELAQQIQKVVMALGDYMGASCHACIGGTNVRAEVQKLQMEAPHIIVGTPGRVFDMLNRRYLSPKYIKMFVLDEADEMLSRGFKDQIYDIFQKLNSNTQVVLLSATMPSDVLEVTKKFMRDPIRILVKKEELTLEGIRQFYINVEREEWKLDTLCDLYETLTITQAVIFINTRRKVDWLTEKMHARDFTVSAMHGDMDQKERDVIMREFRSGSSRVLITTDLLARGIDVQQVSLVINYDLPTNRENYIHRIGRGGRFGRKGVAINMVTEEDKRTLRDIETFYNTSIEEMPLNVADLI
AGAC: 1.02 fold
ACAU: 0.716 fold
UGGC: 0.733 fold
CCAA: 0.67 fold
UAAG: 1.25 fold
AGCC: 0.809 fold
CUUA: 0.638 fold
AAGA: 1.93 fold
CCUC: 0.503 fold
CUUU: 0.625 fold

Set 3 — technique: universal PBM; molecule type: double-stranded DNA, one strand shown; sample: in vitro; concentration: 600 nM; reading: higher = stronger binding; measurement: E-score
Target: Sal-like protein 4, full length isoform A (SALL4, Homo sapiens, UniProt Q9UJQ4, residues 1-1053)
Sequence of UniProt Q9UJQ4 (whole entry, looked up): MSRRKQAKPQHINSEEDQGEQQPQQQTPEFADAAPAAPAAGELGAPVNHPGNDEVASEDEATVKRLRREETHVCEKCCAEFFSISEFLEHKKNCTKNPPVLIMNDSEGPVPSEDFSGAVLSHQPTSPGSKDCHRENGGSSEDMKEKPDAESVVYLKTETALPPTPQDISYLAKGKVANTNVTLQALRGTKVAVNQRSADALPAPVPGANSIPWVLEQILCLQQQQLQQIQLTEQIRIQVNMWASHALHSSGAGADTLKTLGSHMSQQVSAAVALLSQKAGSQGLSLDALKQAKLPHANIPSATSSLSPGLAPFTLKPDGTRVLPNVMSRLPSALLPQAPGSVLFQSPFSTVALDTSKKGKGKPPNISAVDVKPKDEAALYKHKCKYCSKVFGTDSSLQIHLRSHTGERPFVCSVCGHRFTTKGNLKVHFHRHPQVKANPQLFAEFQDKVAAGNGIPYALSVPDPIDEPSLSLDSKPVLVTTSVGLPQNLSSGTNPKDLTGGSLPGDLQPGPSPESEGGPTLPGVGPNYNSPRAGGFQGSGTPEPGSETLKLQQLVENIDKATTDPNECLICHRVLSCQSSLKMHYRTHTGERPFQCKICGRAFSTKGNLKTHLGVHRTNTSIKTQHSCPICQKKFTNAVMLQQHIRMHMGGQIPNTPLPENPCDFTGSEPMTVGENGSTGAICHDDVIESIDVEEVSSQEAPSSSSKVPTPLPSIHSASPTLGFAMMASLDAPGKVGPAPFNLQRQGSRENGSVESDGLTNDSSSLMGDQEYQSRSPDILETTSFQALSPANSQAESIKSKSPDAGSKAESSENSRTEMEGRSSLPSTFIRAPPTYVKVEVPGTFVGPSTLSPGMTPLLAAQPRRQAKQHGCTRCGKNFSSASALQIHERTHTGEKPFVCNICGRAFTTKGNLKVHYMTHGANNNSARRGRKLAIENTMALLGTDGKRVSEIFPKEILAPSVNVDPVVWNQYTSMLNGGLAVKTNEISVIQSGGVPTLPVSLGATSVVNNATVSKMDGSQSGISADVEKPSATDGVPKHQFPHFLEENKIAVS
Setting: 8-mer, flanks averaged, mean of replicates
GAAAGGCC: -0.214
ATCGTCAC: 0.0447
CACCTGCC: -0.202
CTGCCGAA: -0.105
GAACACAA: 0.0434
CGAAAGAA: 0.124
AAACGACT: 0.035
ACCGTATC: -0.0352
AGGCGCGG: -0.445
AGGGTCTA: -0.159
CGATTAAA: 0.218
CAAGGACA: -0.0865

Set 4 — technique: protein binding microarray; molecule type: double-stranded DNA, one strand shown; sample: in vitro; concentration: not given; reference: not given; reading: higher = stronger binding; measurement: E-score
Target: Histone acetyltransferase KAT6A, winged helix 2, GST fusion (KAT6A, Homo sapiens, UniProt Q92794, residues 85-181)
Setting: 8-mer, flanks averaged, mean of 2 arrays, mostly near background
Target sequence (chain): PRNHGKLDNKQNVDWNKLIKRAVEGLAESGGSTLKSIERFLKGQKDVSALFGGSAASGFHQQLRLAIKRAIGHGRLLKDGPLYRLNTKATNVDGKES
CCTTCTCA: -0.091
AGCCAAAG: 0.128
AGAGCTAC: -0.065
AGGTAGAT: -0.0151
GAAAGGTC: -0.173
TCGACCCA: 0.00692
CAGGAAAA: 0.145
AGCGGACC: 0.0427
GCTATACA: -0.0327
ATCATGAT: -0.032
AGCAAGCC: 0.0691
AACGATAT: -0.0182
CTACCTTC: -0.017
GATAGCAA: 0.0985
CATAGATG: -0.0771
CGGGGAAA: 0.044
ATTGAATG: 0.0183
CCCCCTTA: -0.139

Set 5 — technique: competition protein-binding microarray; molecule type: double-stranded DNA, one strand shown; sample: in vitro; concentration: 2 µM; with: Pho4 competitor, 0.05 µM; reading: higher = stronger binding; measurement: fluorescence intensity; shared flanks, not repeated: … GTCTTGATTCGCTTGACGCTGCTG
Target: Centromere-binding protein 1, full length, His-tagged (CBF1, Saccharomyces cerevisiae, UniProt P17106, residues 1-351)
Sequence of UniProt P17106 (whole entry, looked up): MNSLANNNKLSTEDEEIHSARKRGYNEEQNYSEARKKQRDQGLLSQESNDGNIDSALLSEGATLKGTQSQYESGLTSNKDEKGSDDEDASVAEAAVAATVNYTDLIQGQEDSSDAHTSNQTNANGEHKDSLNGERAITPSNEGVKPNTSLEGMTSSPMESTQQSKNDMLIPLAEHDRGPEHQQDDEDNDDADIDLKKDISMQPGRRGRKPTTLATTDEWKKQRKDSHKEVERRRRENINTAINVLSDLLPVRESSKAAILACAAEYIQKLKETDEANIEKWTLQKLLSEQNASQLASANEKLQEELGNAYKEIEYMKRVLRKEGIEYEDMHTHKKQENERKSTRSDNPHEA
Setting: whole 60-bp probe, lowest competitor level
TGCGCAACAACTTTTCACGTGAGGTTATGTCTAGAA: 1180 a.u.
CTAACGAAGGTTTGTCACTAGACTTACAAGCCAAGT: 73.6 a.u.
CCCTAAAGTTTGGTGCACGTGGTTTTCTCTCGCTCT: 2950 a.u.
CAGCGGCATTTCGCTCGCGTGCCAGATCTCACAATC: 81.9 a.u.
TAGGCCGTACCGGTTCTCGTGGTGATGTTACCCAAG: 75.2 a.u.
GTATTTATGGCCTGGCACGTTCATTTCCTACATCCT: 94.3 a.u.
CTAACGAAGGTTTGTCACCCCACTTACAAGCCAAGT: 74.6 a.u.
TCTCCACTCTTCCTCCACGTGGCCGTACTTTCCCCG: 497 a.u.
GGGCTTATGAGAGACCACGTGGTCTTGTGCTTTAGT: 3190 a.u.
CTTCTGTAAATTTGTCGCGTGGGTGGACGCGCCCCG: 97 a.u.
ACAAGACGCTGCCATCACGCAAACTATGTTTTGACA: 86.4 a.u.
AAATTACTAAGTTCCCACGTGTTTTACCCCGTATGA: 925 a.u.
CATACCCAACCTTGCTAGGTGGGTGAAGATATTTGT: 62.2 a.u.
ATCTGTGCCAACAAGTACATGACAACTGTCTCCGGT: 81.5 a.u.
GTCTTGTCTCATTGGCCAGTGGGTGTCCCCACTTCA: 65.1 a.u.
GGGTGTGCATCTGGGCATGATCTACCAAGAGGACAG: 73.4 a.u.

Set 6 — target: UBE2J1 UBC core domain (UniProt Q9Y385); technique: yeast two-hybrid; sample: yeast; setting: mostly zero background; reference: not given; reading: higher = stronger interaction; measurement: lacZ reporter activity
B1: RNF103 RING domain (UniProt O00237); chain WPADMLHCTECVVCLENFENGCLLMGLPCGHVFHQNCIVMWLAGGRHCCPVCRWPSYKKKQPY
B2: RNF182 RING domain (UniProt Q8N6D2); chain AESQASDELECKICYNRYNLKQRKPKVLECCHRVCAKCLYKIIDFGDSPQGVIVCPFCRFETCLPDDEV
B3: VPS8 RING domain (UniProt Q8N3P4); chain TRGLNPKQDYCSICLQQYKRRQEMADEIIVFSCGHLYHSFCLQNKECTVEFEGQTRWTCYKCSSSNKVGKLSE
B4: ARIH2 RING domain (UniProt O95376); chain HVPTSHPPHHCAVCMQFVRKENLLSLACQHQFCRSCWEQHCSVLVKDGVGVGVSCMAQDCPLRTPEDFVF
B5: CNOT4 RING domain (UniProt O95628); chain MSRSPDAKEDPVECPLCMEPLEIDDINFFPCTCGYQICRFCWHRIRTDENGLCPACRKPYPED
Residues (chain): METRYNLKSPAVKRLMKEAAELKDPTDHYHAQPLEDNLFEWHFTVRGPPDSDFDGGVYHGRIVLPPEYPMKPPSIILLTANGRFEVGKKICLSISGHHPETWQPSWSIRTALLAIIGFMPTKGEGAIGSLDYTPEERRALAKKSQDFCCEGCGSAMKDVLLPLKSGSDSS
B1 (RNF103 RING domain): 0
B2 (RNF182 RING domain): 0
B3 (VPS8 RING domain): 0
FDPPLESKYECPICLMALREAVQTPCGHRFCKACIIKSIRDAGHKCPVDNEILLENQLFP (TRAF6 RING domain (UniProt Q9Y4K3)): 0
ASPKIFQKTKCSICNSALELPSVHFLCGHSFHQHCFESYSESDADCPTCLPENRKVMDMI (VPS11 RING domain (UniProt Q9H270)): 0
B4 (ARIH2 RING domain): 0
B5 (CNOT4 RING domain): 0
EIKEYKARLTCPCCNTRKKDAVLTKCFHVFCFECVRGRYEARQRKCPKCNAAFGAHDFHR (RNF40 RING domain (UniProt O75150)): 0

Set 7 — technique: RNA Bind-n-Seq; molecule type: RNA; sample: in vitro; concentration: 365 nM; reference: no-protein control; reading: higher = stronger binding; measurement: RBNS enrichment (R)
Target: RNA binding protein fox-1 homolog 2, RRM domain, GST-SBP tag (RBFOX2, Homo sapiens, UniProt O43251-10, residues 100-194)
Setting: natural RNA segment, single round, ends assumed
Shared flanks, not repeated: GGGAGUUCUACAGUCCGACGAUC … UGGAAUUCUCGGGUGCCAA
Construct (chain): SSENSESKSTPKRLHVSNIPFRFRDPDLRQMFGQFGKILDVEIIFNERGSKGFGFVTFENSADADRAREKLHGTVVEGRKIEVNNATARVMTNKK
AGACACCACAUGACAAGGGGUAUAAGCCCCAGCCCUGCUCAUUCCCACUCACCAGCUGAGGUCUGUCAGGUUUUGAAGGCUUGAUUUUGUGGUGGGUUUGGGGCUUAGUU: 0.333
AAUAUGCAAUGCUAGACAAAGAUUUUCAAAAUAAAAAGCUAUUAUUUCAGAAAUUAUUUUAAAAGAUGCAUAGUAAAACAGUGUUUUCCUAUGGUAAGCAAAUAAGAAUG: 0.392
AAUGAAGGAGCAGCCUUCUGUUUACUAGAAAAAUGUUUGGGUUCACACGUGGUGCUGCUGCCCUGGGUACAGCCCACCAACACCCAGGGCCAGCCAGUAUCACCAGACCU: 0.369
CUUUCUCUACUCCUCUCCCUCAGUCCUGAGACACUAAGAUCCCCUGGGCCAAGUCAGUUGGAGGCUGAGGCUGCAAGGCCAGGUGUGUAGCCCUUUUGAUCAAAUUGGUC: 0.44
CAGGCCUGGCCCCUCUCUGGGAAGGUUGAGAGCUGAGACGGGCAGCCCUGUCCCUUCCUCCAGAUCCGUCUGGUUUUUUACACCGUUUGUUAAUAAAGCCUGAAACCGCU: 0.621
CGGCAAACCCUAUGAAAGUGGAAUUUUCUAACAAAAUAAACUUGCUUGUUUGAUCUGUUUUCUGUAACUUUUGCUAAAUACUUUAUACAUUUUUCAUGUUAAAGAGCCGU: 0.509
AGGUUGCUGAGAAAUGUAAGAGGAGCUGAAGUACAUUGUAUGCAGUUACUGACUGCUUUAGGCAUAGUCUCCGCAGAAGCCUCGUGUGUCCAGUGCUGGGUGUUUGGGUG: 0.464
UUGUAUAUUUCUAUCUGGUAGUAAUGUGUAUUUACAACAUCUGUCACUGCAGUGUUACCGGAGCUUCCUUCAUUGUGCGCACACGACAAAUCUGAGUUCUUUGGGAAAAA: 0.926
GCUGUGUUCAGCACAUUUUAGGUAACAGGACACAACUUGAAACUUUUCAGGAGAGCCUAUUGCCCUACGUGAGCAUUAGGUAAAACUCUUAAAUUUCUGUUUACAUUGAA: 0.24
UUUAUUGUGCUGUUACUCUGUCGAGUGGCUAUUAAAAUUGUCUUAUGCUCUUUGGGCUAAGAGGGGAUCAUCUCGCUUAAGAUGUACUCCUGAUGUAAACAUUUCCCCCA: 0.316
GAGAGGAAACUGGUUUGUAACAAUACUGCAAAUAGAAACCCCAUUUCUACUGAACAUCCUAGUUUUAAACAGAAGAAAAACUGUAAUCCUGGGGUUGGUAUGUAGGAGGU: 0.328
AGUGCCCAGGGUCCUUUUCUGGCGAGAUGAGGCCAUGCACCACUUGCUCAGCACAGAGGCCAGCUUGCGGGAGCUCUGCGUCUCAGGCAGGUGGGACCUCUGAGACACUG: 0.448

Excerpt of the above (set 3):
GAAAGGCC: -0.214
ATCGTCAC: 0.0447
CACCTGCC: -0.202
CTGCCGAA: -0.105
GAACACAA: 0.0434
CGAAAGAA: 0.124
AAACGACT: 0.035
ACCGTATC: -0.0352
AGGCGCGG: -0.445
AGGGTCTA: -0.159
CGATTAAA: 0.218
CAAGGACA: -0.0865
